Experimental data gathered from unrelated publications.
Lines come from different studies, so protocols differ.
Chain of UniProt P06213 (whole entry, looked up): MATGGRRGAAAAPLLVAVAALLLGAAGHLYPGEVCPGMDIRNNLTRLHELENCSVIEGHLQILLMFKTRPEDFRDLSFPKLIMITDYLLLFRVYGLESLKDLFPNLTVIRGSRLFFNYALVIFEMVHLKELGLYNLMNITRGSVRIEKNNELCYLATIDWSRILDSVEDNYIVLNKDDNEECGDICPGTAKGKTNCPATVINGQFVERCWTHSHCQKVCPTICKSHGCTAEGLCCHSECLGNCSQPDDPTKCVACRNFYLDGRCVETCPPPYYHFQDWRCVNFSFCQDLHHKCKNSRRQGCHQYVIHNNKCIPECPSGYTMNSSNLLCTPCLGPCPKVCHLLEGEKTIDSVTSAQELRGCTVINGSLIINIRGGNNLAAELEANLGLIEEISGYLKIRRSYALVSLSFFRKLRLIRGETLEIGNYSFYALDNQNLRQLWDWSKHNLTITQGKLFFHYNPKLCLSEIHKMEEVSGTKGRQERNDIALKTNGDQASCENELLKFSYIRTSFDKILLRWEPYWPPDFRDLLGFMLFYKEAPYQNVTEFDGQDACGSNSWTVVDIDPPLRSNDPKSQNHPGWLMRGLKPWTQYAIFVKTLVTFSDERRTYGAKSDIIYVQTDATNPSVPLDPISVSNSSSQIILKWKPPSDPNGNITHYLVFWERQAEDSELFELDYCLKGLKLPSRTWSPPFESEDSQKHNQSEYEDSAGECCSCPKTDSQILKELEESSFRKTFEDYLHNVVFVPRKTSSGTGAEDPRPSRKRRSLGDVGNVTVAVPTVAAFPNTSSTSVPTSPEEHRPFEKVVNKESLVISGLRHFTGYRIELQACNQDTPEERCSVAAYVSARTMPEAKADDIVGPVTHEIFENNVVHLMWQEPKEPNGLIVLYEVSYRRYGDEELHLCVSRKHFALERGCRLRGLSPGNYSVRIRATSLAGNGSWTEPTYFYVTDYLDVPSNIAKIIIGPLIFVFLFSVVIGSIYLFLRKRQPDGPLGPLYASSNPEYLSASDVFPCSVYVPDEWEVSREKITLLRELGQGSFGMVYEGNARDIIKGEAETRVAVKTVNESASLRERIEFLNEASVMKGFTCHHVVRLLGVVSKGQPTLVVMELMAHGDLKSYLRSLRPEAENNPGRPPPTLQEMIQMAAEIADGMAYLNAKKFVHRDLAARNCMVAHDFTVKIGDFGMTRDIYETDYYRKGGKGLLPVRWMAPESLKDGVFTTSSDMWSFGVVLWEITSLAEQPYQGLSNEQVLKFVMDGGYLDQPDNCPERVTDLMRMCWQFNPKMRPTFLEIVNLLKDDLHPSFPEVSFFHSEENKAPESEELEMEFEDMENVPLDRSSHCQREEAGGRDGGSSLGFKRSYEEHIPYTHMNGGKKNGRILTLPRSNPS
Chain of UniProt P49840 (whole entry, looked up): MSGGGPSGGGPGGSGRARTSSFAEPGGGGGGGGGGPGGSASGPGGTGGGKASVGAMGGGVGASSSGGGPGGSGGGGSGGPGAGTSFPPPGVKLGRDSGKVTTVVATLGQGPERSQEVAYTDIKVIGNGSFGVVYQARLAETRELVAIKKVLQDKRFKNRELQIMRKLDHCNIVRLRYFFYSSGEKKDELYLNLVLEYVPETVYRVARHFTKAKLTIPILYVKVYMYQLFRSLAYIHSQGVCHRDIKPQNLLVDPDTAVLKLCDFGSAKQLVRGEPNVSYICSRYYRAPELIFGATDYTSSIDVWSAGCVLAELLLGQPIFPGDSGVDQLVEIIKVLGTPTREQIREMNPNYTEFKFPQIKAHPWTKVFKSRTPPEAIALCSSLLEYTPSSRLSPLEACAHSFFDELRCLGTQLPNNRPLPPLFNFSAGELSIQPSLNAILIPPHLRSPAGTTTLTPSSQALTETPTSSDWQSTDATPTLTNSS
Chain of UniProt Q08881 (whole entry, looked up): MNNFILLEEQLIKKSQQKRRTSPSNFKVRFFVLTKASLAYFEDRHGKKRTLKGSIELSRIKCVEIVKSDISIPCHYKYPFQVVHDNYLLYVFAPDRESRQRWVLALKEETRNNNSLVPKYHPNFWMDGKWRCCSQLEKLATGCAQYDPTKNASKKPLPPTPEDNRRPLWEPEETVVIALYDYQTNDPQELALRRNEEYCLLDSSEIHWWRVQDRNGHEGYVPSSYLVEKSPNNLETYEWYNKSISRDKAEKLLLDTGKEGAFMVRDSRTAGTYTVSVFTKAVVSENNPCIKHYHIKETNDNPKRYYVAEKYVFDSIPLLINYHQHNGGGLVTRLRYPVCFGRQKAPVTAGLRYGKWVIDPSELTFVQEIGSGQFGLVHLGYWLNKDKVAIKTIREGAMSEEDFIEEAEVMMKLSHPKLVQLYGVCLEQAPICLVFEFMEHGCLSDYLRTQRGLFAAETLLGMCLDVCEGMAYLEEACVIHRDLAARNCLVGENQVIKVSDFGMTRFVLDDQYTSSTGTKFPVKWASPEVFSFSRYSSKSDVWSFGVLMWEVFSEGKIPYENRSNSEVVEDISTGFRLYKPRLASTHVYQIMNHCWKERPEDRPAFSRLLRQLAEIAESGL

Cc1n[nH]c2ccc3nc(-c4ccc(C(=O)NCCN(C)C)cc4F)c4c(c3c12)CCCC4 — GI50 (Kasumi 1; cell growth or viability; 72 h): 0.047 µM
Nc1ccccc1NC(=O)c1ccc(CNc2nccc(-c3cccnc3)n2)cc1 — IC50 (MB002; cell growth or viability; 7 days): 0.0359 µM
CC(=NNC(=S)Nc1ccccc1)c1ccc(Nc2nnc(-c3ccc(Cl)cc3)c3ccccc23)cc1 — cell death (MCF7; cell growth or viability, MTT; 2.5 µM): 87.8%
Cc1cc([C@@H](C)Nc2ccccc2C(=O)O)c2nc(N3CCC(F)(F)CC3)c(C#N)c(=O)n2c1 — remaining binding (Insulin receptor (INSR, Homo sapiens, UniProt P06213); binding, competition with immobilised ligand; 10 µM): 100%
C=C(COCc1ccccc1)[C@@H]1CC[C@@H](C)C[C@H]1OCc1ccccc1 — inhibition (A2780; cell growth or viability, MTT; 30 µM, 72 h): 29.7%
Cc1cn(-c2cc(NC(=O)c3ccc(C)c(Nc4nccc(-c5cccnc5)n4)c3)cc(C(F)(F)F)c2)cn1 — IC50 (MB002; cell growth or viability; 7 days): > 10 µM
C=C(COCc1ccc(F)cc1)[C@@H]1CC[C@@H](C)C[C@H]1OCc1ccc(F)cc1 — inhibition (A2780; cell growth or viability, MTT; 30 µM, 72 h): 52%
CNc1ncc2c(/C=C/C(=O)N3CCC(OC)CC3)nn(CC3OCCO3)c2n1 — EC50 (FLO-1; cell growth or viability, resazurin; 5 days): > 30 µM
C=C(C)[C@@H]1CC[C@@H](C)C[C@H]1OCc1ccccc1 — inhibition (HeLa; cell growth or viability, MTT; 30 µM, 72 h): 59.6%
CC(=NNC(=O)c1ccccc1O)c1ccc(Nc2nnc(-c3ccc(Cl)cc3)c3ccccc23)cc1 — cell death (MCF7; cell growth or viability, MTT; 1.25 µM): 9.65%
CCNC(=S)NNC(=O)COc1ccc2c(C)c(CC)c(=O)oc2c1C — viability (PC-3; cell growth or viability, MTT; 500 µg/mL): 8.02%
Cc1cccc(N(O)N=Nc2ccc(S(=O)(=O)Nc3onc(C)c3C)cc2)c1 — inhibition (ABTS scavenging; 240 µg/mL): 69.2%
CNc1ncc2c(/C=C/C(=O)N3CCC(OC)CC3)nn(CC3CCCC3)c2n1 — EC50 (FLO-1; cell growth or viability, resazurin; 5 days): 7.39 µM
CN(C)CCNC(=O)c1ccc(-c2nc3ccc4[nH]ncc4c3c3c2CCCCC3)c(F)c1 — GI50 (Kasumi 1; cell growth or viability; 72 h): 0.132 µM
COc1cc(-c2cncc3c2CN(C)Cc2cc(N4CCNCC4)ccc2-3)cc(OC)c1OC — remaining activity (Tyrosine-protein kinase ITK/TSK (ITK, Homo sapiens, UniProt Q08881); enzyme activity, inhibitor; 1 µM): 97%
COc1ccc(CNC[C@@](C)(O)[C@@H]2CC[C@@H](C)C[C@H]2OCc2ccccc2)cc1 — inhibition (HeLa; cell growth or viability, MTT; 10 µM, 72 h): 75.8%
CNc1ncc2c(/C=C/C(=O)N3CCCC3)nn(CC3CCCC3)c2n1 — EC50 (FLO-1; cell growth or viability, resazurin; 5 days): 16.4 µM
CCCOc1ccc2c(C)c(CC)c(=O)oc2c1C — viability (PC-3; cell growth or viability, MTT; 31.25 µg/mL): 99.1%
CNC(=O)c1cc(Oc2ccc(NC(=O)Nc3ccc(Cl)c(C(F)(F)F)c3)cc2)ccn1 — viability (WM 266-4; cell growth or viability, MTT; 25 µM, 48 h): 43.8%
CCCCCCc1c(C)nc2cc(OC)ccc2c1O — IC50 (HEK293; cell growth or viability): > 10 µM
CNc1ncc2c(/C=C/C(=O)N3CCCC(N(C)C)C3)nn(CC3CCCC3)c2n1 (stereo not drawn) — EC50 (FLO-1; cell growth or viability, resazurin; 5 days): 16.7 µM
CCN(Cc1ccccc1F)c1ccc(CO)c(Cl)c1 — inhibition (RBE; cell growth or viability, ATP luminescence; 46 µM, 72 h): 61%
O=C(NC(=O)c1ccccc1O)c1ccccc1O — IC50 (HEK293; cell growth or viability): > 10 µM
Nc1ncnc2c1c(/C=C/C(=O)N1CCCC1)nn2CC1CCCC1 — EC50 (FLO-1; cell growth or viability, resazurin; 5 days): > 30 µM
CC(=NNC(=O)c1ccncc1)c1ccc(Nc2nnc(-c3ccc(Cl)cc3)c3ccccc23)cc1 — viability (MCF7; cell growth or viability, MTT; 0.156 µM, 24 h): 24.6%
Cc1cc(NS(=O)(=O)c2ccc(N=NN(C)O)cc2)no1 — inhibition (ABTS scavenging; 180 µg/mL): 39.9%
Cc1c(Cc2ccccc2)c(=O)oc2c(C)c(OCC(=O)NN=Cc3ccc(Cl)cc3)ccc12 — viability (PC-3; cell growth or viability, MTT; 62.5 µg/mL): 48%
OC1(c2ccc(-c3nn(Cc4ccccc4)c4ccccc34)o2)CC1 — inhibition (RBE; cell growth or viability, ATP luminescence; 46 µM, 72 h): 42%
CCc1c(C)c2ccc(OCc3nnc(S)n3N)c(C)c2oc1=O — viability (PC-3; cell growth or viability, MTT; 62.5 µg/mL): 38.8%
CS(=O)(=O)NCCCNCc1ccc(-c2cccc(-c3nc4cc(C(F)(F)F)ccc4[nH]3)c2)cc1 — IC50 (HEK293; cell growth or viability): > 10 µM
C=CCNC(=S)NNC(=O)COc1ccc2c(C)c(CC)c(=O)oc2c1C — viability (PC-3; cell growth or viability, MTT; 250 µg/mL): 13.7%
CNc1ncc2c(/C=C/C(=O)N3CCC(N(C)C)CC3)nn(CC3CCCC3)c2n1 — EC50 (FLO-1; cell growth or viability, resazurin; 5 days): > 30 µM
Cc1c(Cc2ccccc2)c(=O)oc2c(C)c(OCC(=O)NN=Cc3ccc([N+](=O)[O-])cc3)ccc12 — viability (PC-3; cell growth or viability, MTT; 250 µg/mL): 8.2%
Cc1[nH]c(C)c(-c2ccc(-c3ccc(Cl)cc3)cc2)c(=O)c1Cl — IC50 (HEK293; cell growth or viability): > 10 µM
O=C(CCCC[C@H]1SC[C@H]2NC(=O)N[C@H]21)NCCOCCOCCOc1cccc(Cn2nc(-c3ccc(CO)o3)c3ccccc32)c1 — inhibition (RBE; cell growth or viability, ATP luminescence; 46 µM, 72 h): 66%
CC(C)(C)c1nc(-c2cccc(NS(=O)(=O)c3c(F)cccc3F)c2F)c(-c2ccnc(N)n2)s1 — viability (WM 266-4; cell growth or viability, MTT; 6.3 µM, 48 h): 56.9%
O=C(Nc1ccc(Oc2nnc(-c3ccc(Cl)cc3)c3ccccc23)cc1)c1cccc([N+](=O)[O-])c1 — viability (MCF7; cell growth or viability, MTT; 0.156 µM, 24 h): 38.4%
C[C@@H]1CC[C@@H]([C@](C)(O)CNCc2ccccc2F)[C@H](OCc2ccccc2)C1 — inhibition (A2780; cell growth or viability, MTT; 30 µM, 72 h): 98.1%
CCOc1ccc2c(C)c(CC)c(=O)oc2c1C — viability (PC-3; cell growth or viability, MTT; 31.25 µg/mL): 100%
CCC(=CCc1c(O)cc2c(c1O)C(=O)C[C@H](c1ccccc1O)O2)CC — inhibition (HeLa; cell growth or viability, MTT; 15 µM, 48 h): 9.5%
NCc1ccc(-c2nn(Cc3ccncc3)c3ccccc23)o1 — inhibition (RBE; cell growth or viability, ATP luminescence; 46 µM, 72 h): 68%
CCc1c(C)c2ccc(OCC=Cc3ccccc3)c(C)c2oc1=O — viability (PC-3; cell growth or viability, MTT; 125 µg/mL): 38.3%
O=C(C=Cc1ccccc1)Nc1ccc(Oc2nnc(-c3ccc(Cl)cc3)c3ccccc23)cc1 — cell death (MCF7; cell growth or viability, MTT; 0.312 µM): 0.0443%
COc1cc(C(=O)O)ccc1NC(=O)[C@@H]1N[C@@H](CC(C)(C)C)[C@](C#N)(c2ccc(Cl)cc2F)[C@H]1c1cccc(Cl)c1F — IC50 (MB002; cell growth or viability; 7 days): 0.0134 µM
Cc1[nH]c(C)c(-c2ccc(OCc3ccc(OC(F)(F)F)cc3)nc2)c(=O)c1Br — IC50 (HEK293; cell growth or viability): > 10 µM
CC(=NNC(=O)c1ccc(N)cc1)c1ccc(Nc2nnc(-c3ccc(Cl)cc3)c3ccccc23)cc1 — viability (MCF7; cell growth or viability, MTT; 5 µM, 24 h): 5.8%
C[C@@H]1CC[C@@H]([C@@](O)(CNCc2cccc3ccccc23)COCc2ccccc2)[C@H](OCc2ccccc2)C1 — inhibition (A2780; cell growth or viability, MTT; 30 µM, 72 h): 98.5%
Cc1nc(C)c(-c2ccc(C(=O)c3ccccc3)cc2)c(O)c1Br — IC50 (HEK293; cell growth or viability): > 10 µM
CNc1ncc2c(/C=C/C(=O)O)nn(CC3CCCC3)c2n1 — EC50 (FLO-1; cell growth or viability, resazurin; 5 days): > 30 µM
Cc1[nH]c(C)c(-c2ccc(Nc3ccc(C(F)(F)F)cn3)cc2)c(=O)c1Br — IC50 (HEK293; cell growth or viability): > 10 µM
Cc1ccc(C(CS(=O)(=O)c2ccccc2)=NNC2=NC(=O)C(=NNc3ccc([N+](=O)[O-])cc3)S2)cc1 — viability (WM 266-4; cell growth or viability, MTT; 25 µM, 48 h): 34.7%
Cc1cccc(Cn2nc(-c3ccc(CO)o3)c3ccccc32)c1 — inhibition (RBE; cell growth or viability, ATP luminescence; 46 µM, 72 h): 73%
C=CC(=O)N1CCC(COCC(=O)N2CCN(c3nc(-c4cnc(N)nc4C(F)F)nc(N4CCOC[C@@H]4C)n3)CC2)CC1 — remaining binding (Glycogen synthase kinase-3 alpha (GSK3A, Homo sapiens, UniProt P49840); binding, competition with immobilised ligand; 1 µM): 93%
O=C(Nc1ccc(OC2CCN(Cc3ccc(F)cc3)C2)c(Cl)c1)c1cccs1 (stereo not drawn) — IC50 (HEK293; cell growth or viability): > 10 µM
Cc1ccc(C(=O)c2cc(O)c(O)c([N+](=O)[O-])c2)cc1 — IC50 (MB002; cell growth or viability; 7 days): 0.291 µM
CC(=NNC(=O)c1cccnc1)c1ccc(Nc2nnc(-c3ccc(Cl)cc3)c3ccccc23)cc1 — viability (MCF7; cell growth or viability, MTT; 10 µM, 24 h): 4.87%
CN(C)C1CCCN(C(=O)/C=C/c2nn(CC3CCCC3)c3ncnc(N)c23)C1 (stereo not drawn) — EC50 (FLO-1; cell growth or viability, resazurin; 5 days): > 30 µM
